Results collected from several papers.
“And” joins repeats or separate records; there may be more than shown. ± marks the error that the study gave.

SMILES	test	system	setting	how to read	endpoint	result
N#Cc1ccc2c(c1)[C@H]1CCCN(C(=O)c3ccc4[nH]cnc4c3)[C@H]1C2	–	human, male	40 mg, day 7	–	DHEA-S level	4.7 µmol/L
COc1ccc([C@@H](O)c2cc(-c3ncnc4cc(N5CCOCC5)ccc34)c(F)cc2Cl)nn1	–	locally advanced rectal cancer patients	50 mg, together with: capecitabine and radiotherapy	–	nausea TEAE incidence	100%
CNC(=O)c1ccc(-c2cnc3ncc(Cc4ccc5ncccc5c4)n3n2)cc1F	–	Japanese patients	oral, 400 mg, any grade	–	Nausea dose reduction/interruption	2%
O=S(=O)(c1ccc(-c2ccc3nccc(Nc4ccncn4)c3c2)cc1)N1CCOCC1	–	female BALB/c mouse	intraperitoneal, 10 mg/kg	reference: brain over plasma	tissue/plasma ratio	0.04
N#Cc1ccc2c(c1)[C@H]1CCCN(C(=O)c3ccc4[nH]cnc4c3)[C@H]1C2	–	human, plasma	oral, 20 mg once daily, steady state	–	half-life steady state	109 h
COc1cccc(-c2n[nH]c(SCc3ccccn3)n2)c1OC	–	Sprague-Dawley rats, both sexes	oral dietary, 10 mg/kg/day, day 7, 3 h	–	plasma concentration	162 ng/mL
C=CCN1CC(=O)N2[C@@H](Cc3ccc(O)cc3F)C(=O)N(Cc3cccc(N4CC(N5CCN(CC)CC5)C4)n3)C[C@@H]2N1C(=O)NCc1ccccc1	–	advanced solid tumour patients	oral, 10 mg twice daily, grade ≥3, dose-escalation	–	treatment-related AST increased	0%
O=C(Nc1c2c(cc3c1CCC3)CCC2)NS(=O)(=O)/C=C/c1nccs1	–	mouse liver microsomes	1 µM, 30 min, together with: NADPH	–	metabolized fraction	3.68%
COc1ccnc(C(=O)NCC(=O)O)c1O	aerobic dark soil incubation	clay soil	20 °C, persistence endpoint	–	DT50	20.8 days
C[C@@H]1CCO[C@H]2Cn3cc(C(=O)NCc4ccc(F)cc4F)c(=O)c(O)c3C(=O)N12	population PK, post-hoc	children, 25 to <30 kg, plasma	oral, 25 mg film-coated tablet, steady state, geometric mean	–	AUC(0-24)	37700 ng·h/mL
Cc1ccc([C@@H]2O[C@H](CO)[C@@H](O)[C@H](O)[C@H]2O)cc1Cc1ccc(-c2ccc(F)cc2)s1	–	Japanese type 2 diabetes patients	100 mg, day 17, 24 h urine collection	reference: baseline	urinary potassium excretion change	-3.23 mEq
Cc1nc2ccc(OCc3ccc(C(F)(F)F)cc3)cc2[nH]1	rapid equilibrium dialysis	mouse brain homogenate	2 µM, 4 h, 37 °C	–	brain homogenate binding	96.2%
C[C@H]1Oc2cc(cnc2N)-c2c(nn(C)c2C#N)CN(C)C(=O)c2ccc(F)cc21	population PK	patients with mild hepatic impairment (NCI sample A), plasma	oral, 100 mg, mean, single dose	–	clearance	143 mL/min
COc1cccc(OC)c1-c1cc(C(=O)NC2(C(=O)O)C3CC4CC(C3)CC2C4)nn1-c1ccc(C(=O)N(C)CCCN(C)CCCN(C)C(=O)CN2CCN(CC(=O)[O-])CCN(CC(=O)[O-])CCN(CC(=O)[O-])CC2)cc1C(C)C.[177Lu+3] (stereo not drawn)	–	mouse, HT-29 xenograft, muscle	72 h post injection	–	tissue uptake	0.08 %ID/g
Cl.[2H]C([2H])([2H])CC(=O)c1cnc(NC(=O)C2CC2)cc1Nc1cccc(-c2ncn(C([2H])([2H])[2H])n2)c1OC	median	human	oral, 25 mg single dose, fasted, liquid	–	Tmax	1 h
CCc1c(-c2ccccc2)c(-c2ccccc2)nn1-c1ccccc1-c1cccc(OCC(=O)O)c1	–	female Sprague-Dawley rat, ovary	oral, 10 mg/kg, 8 h	–	concentration	197 ng/g
COc1ccc(C[C@@H](C)[C@@H](C)Cc2ccc(OC)c(OC)c2)cc1OC	–	beagle dog female, plasma	oral, 100 mg/kg/day, day 28	–	AUC(0-t)	11300 ± 1920 ng·h/mL
CCc1nn(C)c2nc(-c3ccc(C(=O)O)cc3)nc(NCc3ccc(F)cc3)c12	–	NSG mice	dose not given, day 15 of treatment	–	body weight	23.6 g and 23.3 g and 21.8 g and 22.5 g
CC(C)(C(=O)N1CCOc2c(C#N)cncc2C1)C(F)F	item: Insomnia	human	oral, 20 mg twice daily, 14 days, multiple ascending dose	–	subjects with adverse event	0%
C[C@@H]1CN(CC(=O)N2CC(C)(C)c3nc(CO)c(Cc4ccc(F)cc4)cc32)[C@@H](CN2CCOC[C@H]2C)CN1	–	male Sprague Dawley rats, bile duct cannulated, urine	intravenous, 5 mg/kg, 24 h	reference: dose	unchanged drug excreted	34%
Cc1c(C(=O)O)ccc2c3n(nc12)[C@@H]1[C@H](C3)N(CC2CC2)[C@@]2(C(=O)Nc3cc(Cl)ccc32)[C@H]1c1cccc(Cl)c1F	–	female BALB/c nude mice, SJSA-1 xenograft, plasma	oral, 1 mg/kg twice daily, 2 doses, mean	–	Tmax	11 h
C[C@@H](Nc1cc(F)cc(F)c1)c1cc(C(=O)N(C)C)cc2c(=O)cc(N3CCOCC3)oc12	–	advanced solid tumour patients	oral, 60 mg twice daily, continuous monotherapy	–	any dose reduction	0%
O=C(O)c1cc(O)c(O)c(O)c1	–	chicken broilers, duodenum vs crop content	oral, 2000 mg/kg feed	reference: crop	digestibility increase	17.2%
O=C(N[C@H](Cc1c[nH]c2ccccc12)C(=O)Nc1ccncc1)c1ccc(-c2cc(C(F)(F)F)ccc2F)cc1F	–	Swiss Webster mouse, female, lung	oral, 50 mg/kg, 8 h, 20% HPβCD vehicle	–	concentration	32.2 µM
Cc1cccc(CNC(=O)c2cn(CCNC(=O)c3ccccc3S)c3cc4c(cc3c2=O)OC(F)(F)O4)n1	–	Sprague-Dawley rat, male, whole blood	intramuscular, 30 mg/kg of parent drug	–	bioavailability	21.6 ± 8.4%
O=C(Nc1ccc(OC(F)(F)Cl)cc1)c1cnc(N2CC[C@@H](O)C2)c(-c2ccn[nH]2)c1	per treatment cycle, item: amylase increase	human patients	oral, dose not given, 28 day cycle	–	any-grade event rate	2.2%
CC(C)c1ncc(C(=O)N2CCOC3(CCN(Cc4ccc(F)c(CCNC[C@H](O)c5ccc(O)c6[nH]c(=O)sc56)c4)CC3)C2)s1	equilibrium dialysis	rat, plasma	–	–	fraction unbound	0.098

SMILES	test	system	setting	how to read	endpoint	result
C=CC(=O)Nc1cc(Nc2nccc(-c3cn(C)c4ccccc34)n2)c(OC)cc1N(C)CCN(C)C	storage stability	human plasma	5 h, -80 °C, LLOQ level	–	recovery	98.7%
CC[C@H](C)[C@@H]([C@@H](CC(=O)N1CCC[C@H]1[C@H](OC)[C@@H](C)C(=O)N[C@@H](Cc1ccccc1)C(=O)NCCCO)OC)N(C)C(=O)[C@@H](NC(=O)[C@H](C(C)C)N(C)C)C(C)C	–	Sprague Dawley rat	intravenous, 120 h, dosed as NaPi2b ADC, recovery-corrected	–	fraction excreted via other metabolism	0.602
O=C1NCCc2nc(OCc3cccc(F)c3)ccc21	item: Writhing	Sprague-Dawley rat male	oral, 100 mg/kg, 30 min	direction not given	Irwin test score	0
CC[C@H](C)CCCCC(=O)N[C@@H](CCN)C(=O)N[C@H](C(=O)N[C@@H](CCN)C(=O)N[C@H]1CCNC(=O)[C@H]([C@@H](C)O)NC(=O)[C@H](CCN)NC(=O)[C@H](CCN)NC(=O)[C@H](CC(C)C)NC(=O)[C@@H](Cc2ccccc2)NC(=O)[C@H](CCN)NC1=O)[C@@H](C)O	–	mild renal insufficiency patients	IV, 0.75 mg/kg, arithmetic mean	–	nonrenal clearance	2.07 L/h
O=C(N/N=C/c1ccccc1O)c1ccncc1	–	rat plasma	0.24 µM, 7 days, -80 °C, long-term storage	–	stability	98.9%
CCc1nc(C(N)=O)c(Nc2ccc(N3CCC(N4CCN(C)CC4)CC3)c(OC)c2)nc1NC1CCOCC1	–	processed mouse plasma	15 ng/mL, 24 h, 4 °C	–	re-injection stability accuracy	101%
CC(C(=O)NCC(=O)NCC(CNC(=O)CNC(=O)C(C)N1CCN(CC(=O)[O-])CCN(CC(=O)[O-])CCN(CC(=O)[O-])CC1)(CNC(=O)CNC(=O)C(C)N1CCN(CC(=O)[O-])CCN(CC(=O)[O-])CCN(CC(=O)[O-])CC1)CNC(=O)CNC(=O)C(C)N1CCN(CC(=O)[O-])CCN(CC(=O)[O-])CCN(CC(=O)[O-])CC1)N1CCN(CC(=O)[O-])CCN(CC(=O)[O-])CCN(CC(=O)[O-])CC1.[Gd+3].[Gd+3].[Gd+3].[Gd+3] (stereo not drawn)	–	cynomolgus monkey	IV bolus, within 24 h	–	dose eliminated from plasma	> 99%
COc1ccc2nc(-c3cc(N(C)C)ccn3)c(N(C)c3ccc(F)cc3)n2c1	–	peritoneal macrophages, Swiss mice	5 days, 5% fetal calf serum	–	CC50	3.98 µM
CC(C)(C)C(=O)/N=S(\c1ccc(C(F)(F)F)cc1)C1CC1 (stereo not drawn)	–	human liver microsomes	–	reference: hepatic blood flow	metabolic stability	< 23%
CCN1CCN(Cc2ccc(NC(=O)c3ccc(C)c(NC(=O)c4cncc(-c5cccs5)c4)c3)cc2C(F)(F)F)CC1	LC-MS/MS	C57BL/6 mouse, plasma	intraperitoneal, 10 mg/kg single dose, 0.25 h	–	plasma concentration	436 ng/mL and 444 ng/mL and 580 ng/mL
CCNC(=O)OC1CCN(c2nncc3cc(OC)c(OC)cc23)CC1	equilibrium dialysis	Sprague-Dawley rat, plasma	–	–	fraction unbound	0.169
Cc1cc(NC2CCN(C(=O)OC3CCN(C(=O)/C=C/CN(C)C)C3)CC2)n2ncc(C(C)C)c2n1 (stereo not drawn)	Phase I dose escalation CTCAE v4.0, item: Dizziness	patients with advanced solid tumours	dose not given, TIW dosing any grade	–	patients with adverse event	9%
C=CCn1c(=O)c2cnc(Nc3ccc(N4CCN(C)CC4)cc3)nc2n1-c1ccc2c(n1)[C@@](O)(CC)CC2	–	A-427, female NOD/SCID mouse xenograft, plasma	oral, 20 mg/kg once daily	–	Cmax	1170 ng/mL
O=C(COc1ccc(Cl)cc1)NC12CC(c3nnc([C@H]4C[C@@H](OC(F)(F)F)C4)o3)(C1)C2	item: postural dizziness	human	oral, 200 mg once daily, 14 days	–	adverse event incidence	14.3%
CC[C@H](C)[C@H](NC(=O)[C@H](Cc1ccccc1)NC(=O)[C@H](CCC(=O)O)NC(=O)[C@H](CCCCNC(=O)COCCOCCNC(=O)COCCOCCNC(=O)CC[C@H](NC(=O)CCCCCCCCCCCCCCCCC(=O)O)C(=O)O)NC(=O)[C@H](C)NC(=O)[C@H](C)NC(=O)[C@H](CCC(N)=O)NC(=O)CNC(=O)[C@H](CCC(=O)O)NC(=O)[C@H](CC(C)C)NC(=O)[C@H](Cc1ccc(O)cc1)NC(=O)[C@H](CO)NC(=O)[C@H](CO)NC(=O)[C@@H](NC(=O)[C@H](CC(=O)O)NC(=O)[C@H](CO)NC(=O)[C@@H](NC(=O)[C@H](Cc1ccccc1)NC(=O)[C@@H](NC(=O)CNC(=O)[C@H](CCC(=O)O)NC(=O)C(C)(C)NC(=O)[C@@H](N)Cc1cnc[nH]1)[C@@H](C)O)[C@@H](C)O)C(C)C)C(=O)N[C@@H](C)C(=O)N[C@@H](Cc1c[nH]c2ccccc12)C(=O)N[C@@H](CC(C)C)C(=O)N[C@H](C(=O)N[C@@H](CCCNC(=N)N)C(=O)NCC(=O)N[C@@H](CCCNC(=N)N)C(=O)NCC(=O)O)C(C)C	12-lead Holter ECG	healthy humans	subcutaneous, 1.5 mg once weekly, 42 h, steady state	reference: placebo	QTcB change from baseline	8.7 ms
O=C(Nc1nc2cccc(-c3ccc(CN4CCS(=O)(=O)CC4)cc3)n2n1)C1CC1	item: vomiting	rheumatoid arthritis patients	oral, 30 mg once daily, 4 weeks, any relatedness	–	treatment-emergent adverse events	0%
CC(C)n1c(Nc2cccnc2)nc2cnc(Nc3ccc(N4CCN(C)CC4)cc3)nc21	item: creatine phosphokinase increased	healthy male subjects	oral, 150 mg, study, together with: rifampin	–	subjects with adverse event	14.3%
COc1cc2c(cc1OC)C(=O)C(CC1CCN(Cc3ccccc3)CC1)C2 (stereo not drawn)	–	human subjects	unit not given	reference: placebo	LSEQ behaviour after wake	1.66
Nc1ncnc2c1ncn2[C@H]1C[C@@H]2OP(=O)(O)OC[C@H]3O[C@@H](n4cnc5c(N)ncnc54)C[C@@H]3OP(=O)(O)OC[C@H]2O1	–	non-tumor-bearing mice, blood	intravenous, 1 mg/kg, toxicity study	–	monocyte percentage	2.18 ± 0.94%
NS(=O)(=O)OC[C@@H]1C[C@@H](n2ccc3c(N[C@H]4CCc5ccccc54)ncnc32)C[C@@H]1O	LC-MS/MS, non-compartmental	human, plasma	intravenous, all dose levels, cycle 1 day 1, median	–	AUC(0-24h)	1490 ng·h/mL
C=CC[C@@H]1/C=C(\C)C[C@H](C)C[C@H](OC)[C@H]2O[C@@](O)(C(=O)C(=O)N3CCCC[C@H]3C(=O)O[C@H](/C(C)=C/[C@@H]3CC[C@@H](O)[C@H](OC)C3)[C@H](C)[C@@H](O)CC1=O)[C@H](C)C[C@@H]2OC	–	kidney transplant recipients, whole blood	oral, dose not given, late post-transplant phase	–	patients with C0 in therapeutic range	45%
CNC(=O)c1cc(Oc2ccc(NC(=O)Nc3cc(C(C)(C)C)nn3-c3ccc4ncccc4c3)c(F)c2)ccn1	item: worst grade 1	human	oral, dose not given, cycles 1 and 2, Low AUC(0-4 h) subgroup	–	patients with any AE of special interest	33%
CN(CCC(=O)O)C(=O)c1ccc2c(c1)CC[C@@H]1[C@@H]2CC[C@]2(C)C(c3cncc(F)c3)=CC[C@@H]12	–	premenopausal women with endometriosis pain, serum	60 mg twice daily, end of treatment, completers, mean	reference: baseline	total bilirubin change	0.509 mg/dL
COc1ccnc(C(N)=O)c1O	aerobic dark soil incubation	clay soil	20 °C, persistence endpoint	–	DT50	23.7 days
O.O.O.O.O.O.[Co+2]	differential pulse voltammetry	–	aqua ion	reference: NHE	peak potential	1.82 V
CCOc1c([C@H](C)n2nc(C)c3c(N)ncnc32)cc(Cl)c(F)c1[C@@H]1CNC(=O)C1	item: QRS ≤ 100 ms	previously treated B-cell malignancy	oral, dose not given, baseline below thresholds, all doses	–	share of ECG observations	95.1%
FC(F)(F)c1ccc(CNc2ccc(Cc3c[nH]c4ncc(Cl)cc34)cn2)cn1	item: Anemia	patients with advanced solid tumours, all cohorts	oral, 1000 mg/day, any grade	–	treatment-related adverse events	12%
